Experimental data gathered from unrelated publications.
Compare with care: the assays were run in different laboratories. Values joined by “and” are separate records of one study, mostly repeats; a detail may differ. ± gives the spread as reported.

| Compound | tested on | test | system | setting | scale | measurement | result |
| --- | --- | --- | --- | --- | --- | --- | --- |
| C#CCOCCOCCOCCOCCn1cc(C(ONC(=O)/C=C/C(C)=C/C2(C)Oc3cc(N(C)C)ccc3C2=O)(c2ccc(C)cc2)c2ccc(C)cc2)nn1 (stereo not drawn) |  | HPLC | aqueous buffer, 20% acetonitrile | concentration not given, 1260 min, pH 3 | baseline: initial prodrug amount | release from prodrug hydrolysis | 12.5% |
| Cc1nc(N)nc2c1C(=O)N[C@@H](c1ccc(F)cc1-c1cccc(O[11CH3])n1)C2 |  | ex vivo biodistribution | mice, MDA-MB-231 subcutaneous xenograft, liver | 60 min post-injection, baseline, vehicle pre-treatment |  | tracer uptake | 12.6 ± 0.9 %ID |
| CNc1cc(C)c(C(N)=O)cn1 |  |  | Han Wistar rats, male, plasma | oral, 30 mg/kg, 0.25 h |  | concentration at time | 73.3 µM |
| OC1(C(F)(F)F)CCN(c2nc(Nc3ccnc(C(F)(F)F)c3)nc(-c3cccc(C(F)(F)F)n3)n2)C1 (stereo not drawn) |  |  | monkey, both sexes, plasma | oral, 3 mg/kg |  | absolute bioavailability | 114% |
| CN(C)S(=O)(=O)c1ccc(S(=O)(=O)N2CCC(n3c(=O)[nH]c4ccccc43)CC2)cc1 |  |  | mouse | intraperitoneal, 6 mg/kg, 7 day | baseline: day 0 | body weight | 103% |
| O=C(Nc1cnccc1-c1ccc([18F])cc1)c1ccnc(NC(=O)C2CC2)c1 |  |  | FVB/NJ mice (both sexes), large intestine | intravenous, dose not given, 120 min |  | SUV | 0.59 |
| CCCCN1C(=O)c2cccc3c(NCCN4CCOCC4)ccc(c23)C1=O |  |  | ethyl acetate |  |  | fluorescence lifetime | 9.4 ns |
| Cc1ccc(-c2cn(Cc3cccc(Cl)c3)c3[n+]2CCC3)cc1.[Br-] | Trypanosoma cruzi | reporter mRNA translation, inhibitor, measured: Renilla luciferase mRNA | cell-free extract | concentration not given, test 2 | baseline: positive over negative control | translation activity | 86.8% and 151% |
| CCCC[C@@H]1NC(=O)[C@@H](CC(C)C)NC(=O)[C@H](CCCCNC(=O)CN2CCN(CC(=O)O)CCN(CC(=O)O)CC2)NC(=O)NNC(=O)[C@H](Cc2c[nH]cn2)NC(=O)[C@@H](Cc2c[nH]c3ccccc23)NC1=O [copper-64 labelled] |  |  | Balb/c mice, liver | intravenous, dose not given |  | tissue uptake | 5.85 ± 1.33 %ID/g |
| C=CC(=O)Nc1cc(Nc2nccc(-c3cn(C)c4ccccc34)n2)c(OC)cc1N(C)CCNC |  |  | human plasma | 24 h, storage stability, medium QC sample |  | recovery | 59.8% |
| COc1ccc(CN2CCCC(N3CCN(c4cccc(Cl)c4)CC3)C2)cc1OC (stereo not drawn) | Trypanosoma cruzi | reporter mRNA translation, inhibitor, measured: capped polyadenylated Renilla luciferase mRNA | cell-free extract | concentration not given | baseline: positive over negative control | translation activity | 107% and 101% and 83.2% and 104% |
| CN1CCCNC(=O)c2cccc(c2)C(=O)NCCCN(C)CCCNc2cccc3c2C(=O)c2cccc(c2C3=O)NCCC1 |  |  | mouse xenograft model | dose not given, day 8 |  | body weight | 25 g and 28 g and 26 g |
| Cc1nn(-c2nc3c(F)cc(F)cc3s2)c(O)c1C(c1ccc(C(F)(F)F)cc1)c1c(C)nn(-c2nc3c(F)cc(F)cc3s2)c1O |  |  | ICR mouse | intraperitoneal, 10 mg/kg, 4.00 h |  | plasma concentration | 3520 ng/mL and 1550 ng/mL and 2330 ng/mL |
| O=S(=O)(NCc1ccncc1)c1ccc(C2CCCCC2)cc1 |  |  | CK-p25 mouse and littermates | intraperitoneal, 0.3 mg/kg daily, 6 weeks |  | body weight | no effect |
| O=C(NS(=O)(=O)c1cccs1)c1cc2ccccc2n1Cc1ccc(Br)c2ccccc12 |  |  | Sprague-Dawley rat, male | intravenous, dose not given, 0.083 h |  | plasma concentration | 6000 ng/mL |
| O=c1[nH]c2ccccc2c(=O)n1O |  |  | Caco-2 | 10 µM |  | efflux ratio | 1.4 |
| CN1CCC[C@]1(C)/C=C/S(=O)(=O)NC(=O)Nc1c2c(cc3c1C(O)CC3)CCC2 (stereo partly drawn) |  |  | human, plasma | oral, 12.5 mg twice daily of parent drug, day 14, metabolite of dosed drug |  | Cmax at second steady-state dose | 3100 ng/mL |
| CCC1CNC(CC)CN(C(C(=O)[O-])c2ccc(C(=O)[O-])cc2)C(CC)CN(CC(=O)[O-])C(CC)CN1.[Mn+2] (stereo not drawn) |  | ICP-MS | BALB/c mouse, liver | intravenous, 0.05 mmol/kg, 5 min, without anaesthesia |  | Mn content | 5.03 ± 0.39 µg/g |

For quick reference, copied from above:
| Compound | tested on | test | system | setting | scale | measurement | result |
| --- | --- | --- | --- | --- | --- | --- | --- |
| Cc1nn(-c2nc3c(F)cc(F)cc3s2)c(O)c1C(c1ccc(C(F)(F)F)cc1)c1c(C)nn(-c2nc3c(F)cc(F)cc3s2)c1O |  |  | ICR mouse | intraperitoneal, 10 mg/kg, 4.00 h |  | plasma concentration | 3520 ng/mL and 1550 ng/mL and 2330 ng/mL |
| O=S(=O)(NCc1ccncc1)c1ccc(C2CCCCC2)cc1 |  |  | CK-p25 mouse and littermates | intraperitoneal, 0.3 mg/kg daily, 6 weeks |  | body weight | no effect |
